Measurements of several laboratories.
Each numbered part is a random draw from the data of one study; scales do not carry over between parts.
UniProt Q13976, sequence (whole entry, looked up): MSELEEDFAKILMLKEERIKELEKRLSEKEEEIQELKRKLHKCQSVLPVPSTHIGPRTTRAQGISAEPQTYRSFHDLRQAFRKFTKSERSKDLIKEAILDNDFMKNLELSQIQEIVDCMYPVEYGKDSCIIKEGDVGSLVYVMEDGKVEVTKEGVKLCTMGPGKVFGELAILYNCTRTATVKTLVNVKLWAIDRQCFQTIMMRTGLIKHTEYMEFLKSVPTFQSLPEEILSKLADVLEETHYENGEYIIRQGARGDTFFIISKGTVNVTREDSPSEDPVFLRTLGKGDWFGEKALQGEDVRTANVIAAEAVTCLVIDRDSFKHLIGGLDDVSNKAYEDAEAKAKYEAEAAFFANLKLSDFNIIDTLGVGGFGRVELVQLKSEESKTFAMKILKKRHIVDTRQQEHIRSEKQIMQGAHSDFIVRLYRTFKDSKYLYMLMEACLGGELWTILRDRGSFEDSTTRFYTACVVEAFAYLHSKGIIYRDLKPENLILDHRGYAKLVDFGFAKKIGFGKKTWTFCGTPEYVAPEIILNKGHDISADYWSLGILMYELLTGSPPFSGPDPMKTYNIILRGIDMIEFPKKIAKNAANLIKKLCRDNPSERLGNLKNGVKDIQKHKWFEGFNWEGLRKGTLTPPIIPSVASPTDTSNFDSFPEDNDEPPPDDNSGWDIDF
UniProt P54756, sequence (whole entry, looked up): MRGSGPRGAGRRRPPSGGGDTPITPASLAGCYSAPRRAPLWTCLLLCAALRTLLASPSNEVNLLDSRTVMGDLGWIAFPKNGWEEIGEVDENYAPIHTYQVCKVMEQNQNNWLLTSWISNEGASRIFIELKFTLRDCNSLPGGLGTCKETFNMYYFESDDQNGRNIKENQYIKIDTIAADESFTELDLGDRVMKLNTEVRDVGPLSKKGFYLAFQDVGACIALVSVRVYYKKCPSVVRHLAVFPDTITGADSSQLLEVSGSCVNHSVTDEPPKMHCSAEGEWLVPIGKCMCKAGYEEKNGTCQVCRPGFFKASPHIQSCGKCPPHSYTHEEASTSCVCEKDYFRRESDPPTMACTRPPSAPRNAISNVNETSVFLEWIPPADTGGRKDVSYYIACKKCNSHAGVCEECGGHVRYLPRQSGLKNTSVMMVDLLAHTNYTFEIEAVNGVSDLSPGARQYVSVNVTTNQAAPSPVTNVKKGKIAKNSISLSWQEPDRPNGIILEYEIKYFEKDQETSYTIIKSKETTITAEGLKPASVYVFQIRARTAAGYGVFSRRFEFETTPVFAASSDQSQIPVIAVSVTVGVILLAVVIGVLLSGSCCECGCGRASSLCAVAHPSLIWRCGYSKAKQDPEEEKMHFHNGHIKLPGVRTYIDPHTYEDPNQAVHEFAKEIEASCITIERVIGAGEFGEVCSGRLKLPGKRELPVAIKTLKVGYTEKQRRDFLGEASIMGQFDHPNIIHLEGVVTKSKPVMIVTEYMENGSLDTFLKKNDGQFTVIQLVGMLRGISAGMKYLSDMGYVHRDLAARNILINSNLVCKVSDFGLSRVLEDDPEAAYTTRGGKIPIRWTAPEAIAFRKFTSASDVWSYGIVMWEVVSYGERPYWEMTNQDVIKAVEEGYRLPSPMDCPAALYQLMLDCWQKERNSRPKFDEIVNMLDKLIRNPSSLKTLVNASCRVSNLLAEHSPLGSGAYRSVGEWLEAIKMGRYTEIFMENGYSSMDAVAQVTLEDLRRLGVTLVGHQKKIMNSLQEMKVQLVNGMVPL
UniProt O15264, sequence (whole entry, looked up): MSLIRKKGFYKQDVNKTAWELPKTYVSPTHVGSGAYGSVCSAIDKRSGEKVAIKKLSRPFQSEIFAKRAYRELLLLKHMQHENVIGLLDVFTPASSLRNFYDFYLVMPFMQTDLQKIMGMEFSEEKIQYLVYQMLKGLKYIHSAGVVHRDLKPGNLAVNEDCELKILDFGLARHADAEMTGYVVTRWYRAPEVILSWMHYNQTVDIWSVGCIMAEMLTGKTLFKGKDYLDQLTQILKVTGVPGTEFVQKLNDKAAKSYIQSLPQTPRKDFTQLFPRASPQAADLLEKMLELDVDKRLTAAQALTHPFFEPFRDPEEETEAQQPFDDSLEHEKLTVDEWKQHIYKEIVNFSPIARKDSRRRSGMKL
UniProt Q86YV6, sequence (whole entry, looked up): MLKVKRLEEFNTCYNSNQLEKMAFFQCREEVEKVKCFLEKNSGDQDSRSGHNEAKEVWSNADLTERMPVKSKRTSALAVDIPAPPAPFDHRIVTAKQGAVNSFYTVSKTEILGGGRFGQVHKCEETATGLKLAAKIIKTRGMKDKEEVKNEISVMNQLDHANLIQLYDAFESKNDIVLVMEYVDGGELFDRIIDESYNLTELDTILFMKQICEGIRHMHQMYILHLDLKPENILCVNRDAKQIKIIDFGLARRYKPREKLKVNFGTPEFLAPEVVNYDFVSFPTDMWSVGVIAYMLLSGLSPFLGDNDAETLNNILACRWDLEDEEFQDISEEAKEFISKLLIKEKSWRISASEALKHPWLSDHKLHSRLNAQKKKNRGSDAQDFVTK
UniProt Q15746, sequence (whole entry, looked up): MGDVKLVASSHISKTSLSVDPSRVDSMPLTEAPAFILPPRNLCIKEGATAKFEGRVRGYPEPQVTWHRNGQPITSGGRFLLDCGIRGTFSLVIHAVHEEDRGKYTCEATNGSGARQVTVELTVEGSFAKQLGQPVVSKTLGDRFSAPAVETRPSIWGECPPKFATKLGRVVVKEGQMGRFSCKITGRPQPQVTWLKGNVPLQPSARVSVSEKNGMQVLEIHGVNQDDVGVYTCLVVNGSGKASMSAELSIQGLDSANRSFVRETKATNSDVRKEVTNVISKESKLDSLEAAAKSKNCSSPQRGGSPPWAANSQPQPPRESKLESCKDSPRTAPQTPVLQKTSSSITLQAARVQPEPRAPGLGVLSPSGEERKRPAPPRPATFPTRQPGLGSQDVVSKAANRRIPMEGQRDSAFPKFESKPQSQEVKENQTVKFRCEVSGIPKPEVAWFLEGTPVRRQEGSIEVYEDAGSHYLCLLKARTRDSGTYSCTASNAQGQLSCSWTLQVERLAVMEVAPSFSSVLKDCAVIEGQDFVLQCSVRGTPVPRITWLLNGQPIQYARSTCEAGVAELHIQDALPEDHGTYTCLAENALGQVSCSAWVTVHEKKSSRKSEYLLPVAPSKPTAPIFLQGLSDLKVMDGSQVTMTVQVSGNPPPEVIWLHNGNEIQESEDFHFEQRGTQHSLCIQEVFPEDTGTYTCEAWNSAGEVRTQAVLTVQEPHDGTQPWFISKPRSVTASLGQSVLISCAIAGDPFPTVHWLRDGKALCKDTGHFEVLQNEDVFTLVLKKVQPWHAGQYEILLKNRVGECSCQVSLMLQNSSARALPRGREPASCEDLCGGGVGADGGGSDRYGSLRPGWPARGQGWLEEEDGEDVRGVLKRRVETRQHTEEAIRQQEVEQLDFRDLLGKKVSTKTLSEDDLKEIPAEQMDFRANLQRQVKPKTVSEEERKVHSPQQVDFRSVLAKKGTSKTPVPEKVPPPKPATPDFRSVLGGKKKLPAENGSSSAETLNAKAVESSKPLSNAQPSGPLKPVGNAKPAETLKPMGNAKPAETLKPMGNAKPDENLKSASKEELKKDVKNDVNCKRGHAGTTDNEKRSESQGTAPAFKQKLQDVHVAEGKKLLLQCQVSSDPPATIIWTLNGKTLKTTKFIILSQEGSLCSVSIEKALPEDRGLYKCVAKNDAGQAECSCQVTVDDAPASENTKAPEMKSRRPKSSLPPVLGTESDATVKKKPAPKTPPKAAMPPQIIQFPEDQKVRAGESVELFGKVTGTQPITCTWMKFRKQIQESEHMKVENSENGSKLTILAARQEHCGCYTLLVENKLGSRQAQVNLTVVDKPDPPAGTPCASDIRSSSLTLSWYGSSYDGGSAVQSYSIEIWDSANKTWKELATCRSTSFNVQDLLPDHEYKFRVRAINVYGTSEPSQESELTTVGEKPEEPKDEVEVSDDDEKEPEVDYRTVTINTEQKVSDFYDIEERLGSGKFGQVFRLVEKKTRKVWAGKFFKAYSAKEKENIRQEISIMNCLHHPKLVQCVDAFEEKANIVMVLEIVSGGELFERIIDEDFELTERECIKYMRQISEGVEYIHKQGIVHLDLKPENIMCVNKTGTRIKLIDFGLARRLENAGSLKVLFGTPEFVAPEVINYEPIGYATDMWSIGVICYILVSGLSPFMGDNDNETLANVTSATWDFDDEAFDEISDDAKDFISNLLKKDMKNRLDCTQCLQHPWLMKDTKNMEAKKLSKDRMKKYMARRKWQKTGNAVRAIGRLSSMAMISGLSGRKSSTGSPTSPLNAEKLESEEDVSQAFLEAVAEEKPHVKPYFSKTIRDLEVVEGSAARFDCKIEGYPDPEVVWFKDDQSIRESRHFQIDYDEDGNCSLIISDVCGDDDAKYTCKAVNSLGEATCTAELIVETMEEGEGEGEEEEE

Set 1 — observed: enzyme activity; concentration: 10 µM; reference: untreated control
Compound: Cc1sc(C(=O)NC2COC2)cc1-n1cc(NC(=O)Nc2c(F)cccc2Cl)cn1
| target | remaining activity [%] |
| --- | --- |
| Cyclin-dependent kinase 3, with cyclin E (CDK3, Homo sapiens, UniProt Q00526) | 91 |
| HCK (Homo sapiens, UniProt P08631) | 92.5 |
| MYLK (Homo sapiens, UniProt Q15746) | 102 |
| MAPK13 (Homo sapiens, UniProt O15264) | 85.7 |
| STK11 (Homo sapiens, UniProt Q15831) | 97 |
| EPHA5 (Homo sapiens, UniProt P54756) | 103 |
| EPHA7 (Homo sapiens, UniProt Q15375) | 95.9 |
| SRMS (Homo sapiens, UniProt Q9H3Y6) | 103 |
| NEK5 (Homo sapiens, UniProt Q6P3R8) | 102 |
| TLK1 (Homo sapiens, UniProt Q9UKI8) | 103 |
| MYLK4 (Homo sapiens, UniProt Q86YV6) | 109 |
| FGFR2 (Homo sapiens, UniProt P21802) | 106 |
| TXK (Homo sapiens, UniProt P42681) | 73.8 |
| NTRK3 (Homo sapiens, UniProt Q16288) | 85.1 |

Set 2 — observed: enzyme activity; mode: inhibitor; concentration: 0.5 µM; reference: control
Structure (SMILES): N#Cc1cnc2cnc(NCc3cccnc3)cc2c1Nc1ccc(F)c(Cl)c1
| target | remaining activity |
| --- | --- |
| IRAK4 (Homo sapiens, UniProt Q9NWZ3) | 100% |
| MAP2K6 (Homo sapiens, UniProt P52564) | 115% |
| MAPK13 (Homo sapiens, UniProt O15264) | 101% |
| STK38 (Homo sapiens, UniProt Q15208) | 93.9% |
| Cyclin-dependent kinase 9, with cyclin T1 (CDK9, Homo sapiens, UniProt P50750) | 91.2% |
| WNK2 (Homo sapiens, UniProt Q9Y3S1) | 91.1% |
| AKT3 (Homo sapiens, UniProt Q9Y243) | 95.1% |
| CSNK2A1 (Homo sapiens, UniProt P68400) | 95.8% |
| MAP3K10 (Homo sapiens, UniProt Q02779) | 101% |
| MKNK2 (Homo sapiens, UniProt Q9HBH9) | 79.3% |
| PRKCI (Homo sapiens, UniProt P41743) | 94.7% |
| EPHA5 (Homo sapiens, UniProt P54756) | 90.6% |
| PLK2 (Homo sapiens, UniProt Q9NYY3) | 110% |
| LYN (Homo sapiens, UniProt P07948) | 90.4% |
| BTK (Homo sapiens, UniProt Q06187) | 98.3% |
| LRRK2 (Homo sapiens, UniProt Q5S007) | 86.6% |
| CSNK1A1 (Homo sapiens, UniProt P48729) | 101% |
| PRKCD (Homo sapiens, UniProt Q05655) | 95.2% |
| NEK4 (Homo sapiens, UniProt P51957) | 71.7% |
| KIT (Homo sapiens, UniProt P10721) | 92.9% |
| CHEK1 (Homo sapiens, UniProt O14757) | 90.2% |
| MAP4K2 (Homo sapiens, UniProt Q12851) | 72.2% |
| PRKG1 (Homo sapiens, UniProt Q13976) | 90.8% |

Set 3 — observed: cell-free assay; method: competition with immobilised ligand; concentration: 1 µM
SMILES: CCCCN(CCCC)C(=O)CN1C[C@H](c2cc(OC)c3c(c2)OCO3)[C@@H](C(=O)O)[C@@H]1CC(C)(C)CCC
| target | remaining binding [%] |
| --- | --- |
| WNK3 (Homo sapiens, UniProt Q9BYP7) | 100 |
| PRKG1 (Homo sapiens, UniProt Q13976) | 100 |
| MYLK4 (Homo sapiens, UniProt Q86YV6) | 99.1 |
| CAMK1G (Homo sapiens, UniProt Q96NX5) | 100 |
| SGK3 (Homo sapiens, UniProt Q96BR1) | 75.7 |
| CSNK1G2 (Homo sapiens, UniProt P78368) | 100 |
| eIF-2-alpha kinase GCN2, C-terminal kinase domain (EIF2AK4, Homo sapiens, UniProt Q9P2K8, S808G) | 100 |
| NTRK2 (Homo sapiens, UniProt Q16620) | 62 |
| MST1R (Homo sapiens, UniProt Q04912) | 100 |
| DCLK3 (Homo sapiens, UniProt Q9C098) | 91.4 |
| CDK11B (Homo sapiens, UniProt P21127) | 86.4 |

Set 4 — observed: enzyme activity; mode: inhibitor; concentration: 10 µM
Target: Calcium/calmodulin-dependent protein kinase type II subunit alpha (CAMK2A, Homo sapiens, UniProt Q9UQM7)
UniProt Q9UQM7, sequence (whole entry, looked up): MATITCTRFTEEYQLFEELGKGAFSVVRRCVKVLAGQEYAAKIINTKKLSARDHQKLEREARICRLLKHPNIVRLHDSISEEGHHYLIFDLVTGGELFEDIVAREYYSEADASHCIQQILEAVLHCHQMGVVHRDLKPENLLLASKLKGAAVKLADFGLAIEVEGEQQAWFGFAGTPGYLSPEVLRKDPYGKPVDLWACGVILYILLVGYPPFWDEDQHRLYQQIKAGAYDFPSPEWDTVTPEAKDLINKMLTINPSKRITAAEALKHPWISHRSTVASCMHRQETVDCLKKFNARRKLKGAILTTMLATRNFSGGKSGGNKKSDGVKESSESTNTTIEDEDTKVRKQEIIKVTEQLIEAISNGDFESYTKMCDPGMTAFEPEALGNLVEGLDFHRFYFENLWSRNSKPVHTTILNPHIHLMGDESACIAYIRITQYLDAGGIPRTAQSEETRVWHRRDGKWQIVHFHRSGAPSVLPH
| SMILES | inhibition [%] |
| --- | --- |
| O=c1cc(-c2ccccc2)oc2c(O)c(O)cc(O)c12 | -24 |
| O=C1O[C@H]2[C@@H]3OC(=O)c4cc(O)c(O)c(O)c4-c4c(cc(O)c(O)c4O)C(=O)OC[C@H]2O[C@@H](OC(=O)c2cc(O)c(O)c(O)c2)[C@@H]3OC(=O)c2cc(O)c(O)c3c2[C@@H]2C1=CC(=O)[C@](O)(O3)C2(O)O | -27 |
| CC(C)=CCC1=C(O)C(=O)c2ccccc2C1=O | 0 |
| OC[C@H]1O[C@@H](Oc2ccc(O)cc2)[C@H](O)[C@@H](O)[C@@H]1O | 28 |
| O=C(O)CCC(=O)c1ccc(-c2ccccc2)cc1 | -7 |
| O=C(O)CC(CC(=O)O)C(=O)O | -33 |
| CC(C)CCC[C@@H](C)[C@H]1CC[C@H]2[C@@H]3CC(=O)[C@H]4C[C@@H](O)CC[C@]4(C)[C@H]3CC[C@]12C | -7 |
| CC(O)C(=O)O (centres unmarked) | 2 |

For quick reference, copied from above (set 2):
| target | remaining activity |
| --- | --- |
| MAP2K6 (Homo sapiens, UniProt P52564) | 115% |
| MAPK13 (Homo sapiens, UniProt O15264) | 101% |
| STK38 (Homo sapiens, UniProt Q15208) | 93.9% |
| Cyclin-dependent kinase 9, with cyclin T1 (CDK9, Homo sapiens, UniProt P50750) | 91.2% |
| WNK2 (Homo sapiens, UniProt Q9Y3S1) | 91.1% |
| AKT3 (Homo sapiens, UniProt Q9Y243) | 95.1% |
| CSNK2A1 (Homo sapiens, UniProt P68400) | 95.8% |
| MAP3K10 (Homo sapiens, UniProt Q02779) | 101% |
| MKNK2 (Homo sapiens, UniProt Q9HBH9) | 79.3% |
